Measurements collected from several papers.
Every numbered part comes from another study and shows a few of its results, in no order. Positions count from the first letter of the parent shown.

Set 1
Target: ABI1, truncated, D143A, DHFR fusion (Arabidopsis thaliana)
Method: DHFR PCA, deep sequencing
Sample: yeast
Setting: methotrexate growth selection, single substitutions
Added: (+)-ABA 1.4 µM
Baseline: wild-type fitted maximum
Reading: higher = stronger binding
Measurement: relative binding score
Parent: PYL1, truncated, DHFR fusion (Arabidopsis thaliana); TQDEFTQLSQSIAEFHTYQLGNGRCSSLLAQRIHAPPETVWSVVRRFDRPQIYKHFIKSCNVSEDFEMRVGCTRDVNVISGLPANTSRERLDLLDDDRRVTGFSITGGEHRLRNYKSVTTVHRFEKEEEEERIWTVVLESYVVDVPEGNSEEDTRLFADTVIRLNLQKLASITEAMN
I52K: 23.9%
Q2E: 75.4%
D159C: -16%
N85V: 67.7%
T73R: 19.4%
T6W: 47.1%
G148Y: -12%
S26H: 35.6%
Q167N: 37.7%
E4G: 35.9%
G23E: 21%
C72V: 60.7%
L166I: 10.3%
F124R: 7.39%

Set 2
Target: RING finger protein unkempt homolog, zinc fingers 1-6, GST-SBP tag (UNK, Homo sapiens, UniProt Q9C0B0, residues 30-357)
Chain of UniProt Q9C0B0 (30-357, looked up): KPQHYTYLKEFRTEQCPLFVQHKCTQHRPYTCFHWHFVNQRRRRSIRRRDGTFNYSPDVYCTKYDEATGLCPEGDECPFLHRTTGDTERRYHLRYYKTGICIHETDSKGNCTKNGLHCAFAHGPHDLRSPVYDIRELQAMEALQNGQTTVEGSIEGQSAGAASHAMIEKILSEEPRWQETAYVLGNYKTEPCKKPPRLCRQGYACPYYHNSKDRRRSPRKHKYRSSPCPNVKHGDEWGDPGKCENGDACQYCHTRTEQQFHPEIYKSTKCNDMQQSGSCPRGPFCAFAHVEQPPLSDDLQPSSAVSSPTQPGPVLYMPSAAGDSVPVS
Method: RNA Bind-n-Seq
Form: RNA
Sample: in vitro
Concentration: not given
Setting: RNA with constant flanks, human and mouse sites, ends assumed
Baseline: input RNA pool
Reading: higher = stronger binding
Measurement: bound/input enrichment
Constant ends, left off below: GGGAGUUCUACAGUCCGACGAUC … CAACAGAGGAUUGAGCAUCA
UCGAGCCGAUAACAGGGUUCGGGUGUCUGGUGUGUGACCAUCACAGGGUUUGUGGAUGCACUUAGAUGUUUGCAAUGAGCACUGUGGCUGGCAUGCCCCAGUAUUUUGGAUACCAAUGCA: 0.146 ratio
CCCCCACCUCCGCCCCUCCCCCCAGCCUCCCCCAUCAAAGCCCAGUUGGUGUCCCCGCCUGCCCCUCCAACCAAGGUGAAUCCAUCUGUGGUGCCACCUCCUCUACCCUGCGCACCUCCU: 1.32 ratio
GCUUUUCAAGCCAAGGAUGUGGAAGGAUCUACUUCUCCUCAAAUAGGAGAUAAGGUUGAAUUUAGUAUUAGUGACAAACAGAGGCCUGGACAGCAGGUUGCAACUUGUGUGCGACUUUUA: 2.05 ratio
GAAUGUAUCUCACCUACAUACAAGACUGGACCAUCACUGCACAGGGAAUAUGGUAGCACAUCUUCAAUUGAUAAACAGGGAACAUCUGGAGAAAGCUUUUUUGAUUUGUUAAAGGGCUAC: 0.293 ratio
CAUGAAAUGGCUUGGGCAGUGGUCAAUGAAAUUGAAAAACAAUUGAAUGCUAUUCGAGACAAUAUCAAAAUUGGAGAAGAACGUGCUGCAAAACUUGACAGGAAAAUGGAAGAGCAGCAG: 0.292 ratio
AUUCCUUUUAUUGAAACAUCAGCAAAGACAAGACAGGGUGUUGAUGAUGCCUUCUAUACAUUAGUUCGAGAAAUUCGAAAACAUAAAGAAAAGAUGAGCAAAGAUGGUAAAAAGAAGAAA: 0.378 ratio
UAAGAUUUUGUUUUUUCACUUACAGGCUAUAAAAGAGCAGUACAGGGCCCAGCCCAGCUCCUUAGCUAGCGAAUUGCGAUGGAAUGACAUAGCUGUGGCAAAACUAAGCGGCCGCUGCUC: 0.3 ratio
GGAUAUGUGUCUGGACUGGAGGUCCGUGAAACCUUCCUGAAAACAGGUUUACCUUCUGCCUUGCUAGCCCACAUUUGGUCACUAUGUGACACAAAGGGCUGUGGGAAGCUUUCAAAAGAC: 0.179 ratio
AUUAUAAGAGAAACAGAAAAUGAUGACCUUACCAAUGUAAUUCAGAAAAUGAUCUGUGAAUAUAGUGAAGAAGUUACUCCUAUUGCAGUAGAAAUGACACAACAUUUGGCAAUGACAUUU: 0.132 ratio
GUAUAGUAGCAAUAAUUUCUGUAUGUGAUCAAGAGUUUAUUGCAUUAUUUCUUUCCCUGUUCUCUUUUUUUUUUUUUUAAGGGUUAGCAUUAACAAAUGUCAAGGAGUAGCAAAGUCAAC: 3.26 ratio
ACAUCUCCAGCAGCAGACAACAUAGAAAAGGAGGCGCUUCCUCGUUAUGAGCCAAUUCCAUUUAGUGCUUCUAUGAACGAGUCCACUCCCACUGGUAUUACUGACCAUAUUGCCCAAGGA: 0.427 ratio

Set 3
Target: CCNA2, cyclin fold, Cln2 fusion (human)
Method: yeast growth competition, sequencing
Sample: yeast
Setting: strong parent motif
Baseline: not given
Reading: higher = stronger binding
Measurement: normalised enrichment score
Parent: HASPIN docking peptide (human); ASLRSVLFGLMNS
G9A: 1.85
N12A: 1.9
F8A: 1.05
S2A: 0.846
M11A: 1.82
V6A: 1.18

Set 4
Target: Phosphate system positive regulatory protein PHO4, full length, GST-tagged (PHO4, Saccharomyces cerevisiae, UniProt P07270, residues 1-312)
Method: competition protein-binding microarray
Form: double-stranded DNA, one strand shown
Sample: in vitro
Concentration: 2 µM
Setting: whole 60-bp probe, lowest competitor level
Added: Cbf1 competitor, 0.05 µM
Reading: higher = stronger binding
Measurement: fluorescence intensity
Constant ends, left off below: … GTCTTGATTCGCTTGACGCTGCTG
Target sequence (chain): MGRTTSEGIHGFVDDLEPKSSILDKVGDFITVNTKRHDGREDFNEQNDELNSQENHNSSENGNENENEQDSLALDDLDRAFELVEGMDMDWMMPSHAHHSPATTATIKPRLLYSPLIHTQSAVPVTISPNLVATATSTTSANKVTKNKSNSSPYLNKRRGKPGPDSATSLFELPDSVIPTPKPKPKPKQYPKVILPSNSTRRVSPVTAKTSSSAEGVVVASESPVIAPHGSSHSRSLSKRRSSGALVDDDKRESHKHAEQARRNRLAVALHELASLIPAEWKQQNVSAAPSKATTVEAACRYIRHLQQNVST
CATACCCAACCTTGTTTTGTGGGTGAAGATATTTGT: 4090 a.u.
AAAGCGGTAATTTGTGCTGTGGGTGCAGATATCTAT: 4350 a.u.
TGTGGATCATATCTCATATCTTCACATATACGAACA: 3430 a.u.
AGGGATACCGCTACCCACGTACCCCAAGACCAGCCC: 8260 a.u.
TAGGGGCTCTCACAAAACGGGCACTACCTTTTGTTT: 4050 a.u.
CTTCAGTGTTTTTAGCACGTTTTAGAGCAGCAGGAT: 15300 a.u.
CGTCCTAGTGATTGCGGCGTGGGTGCCATGAGGAAG: 8970 a.u.
CTTCTGTAAATTTGTCACTGGACTTGACGCGCCCCG: 3000 a.u.
AGCACCCAATTGGGCCATGTGTGTTTAACGCCGGGC: 8010 a.u.
GTCTTGTCTCATTGACTAGTGGGTGTCCCCACTTCA: 4140 a.u.
CTTCTGTAAATTTGTCACGCAACTTGACGCGCCCCG: 4610 a.u.
CGTCCTAGTGATTTTCACGTGTCCTCCATGAGGAAG: 13500 a.u.
TCCAATTATGCGATGCATGTGCCTTCCGTTTAGAGT: 13300 a.u.
TCGAAGAAACGAATTCACCTGATTGCAGCTGTAAAA: 2970 a.u.
AAAAAAATAAATGAACACATGGAAATAAGTCAAGGA: 8450 a.u.
TTTCATAGAAACAAATCCGTGATGGTTTAATGGTCA: 3710 a.u.
CCCCACTCCCGCGAGCACGTGCGCGTCCTCGCTGCT: 19100 a.u.

Set 5
Target: Ras GTPase-activating protein-binding protein 1, full length (G3BP1, Homo sapiens, UniProt Q13283)
Chain of UniProt Q13283 (whole entry, looked up): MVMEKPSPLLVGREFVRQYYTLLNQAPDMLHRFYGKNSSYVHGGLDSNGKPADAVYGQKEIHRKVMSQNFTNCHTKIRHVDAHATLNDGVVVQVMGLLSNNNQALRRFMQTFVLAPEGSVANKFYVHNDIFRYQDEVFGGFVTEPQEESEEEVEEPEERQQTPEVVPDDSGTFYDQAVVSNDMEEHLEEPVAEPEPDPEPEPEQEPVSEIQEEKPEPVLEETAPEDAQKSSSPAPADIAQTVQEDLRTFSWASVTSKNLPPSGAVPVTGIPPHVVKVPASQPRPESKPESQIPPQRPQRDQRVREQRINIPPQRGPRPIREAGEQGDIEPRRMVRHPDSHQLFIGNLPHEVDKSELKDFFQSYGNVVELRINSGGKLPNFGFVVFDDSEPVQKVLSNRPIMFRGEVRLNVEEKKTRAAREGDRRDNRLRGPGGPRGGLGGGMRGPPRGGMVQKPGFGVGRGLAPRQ
Method: RNA Bind-n-Seq
Form: RNA
Sample: in vitro
Concentration: 200 nM
Setting: whole 134-nt RNA, ends assumed
Added: 150 mM LiCl
Baseline: input library
Reading: higher = stronger binding
Measurement: log2 enrichment
Each molecule: 7-deaza-guanosine replaces G
Constant ends, left off below: GGGAGUUCUACAGUCCGACGAUC … UGGAAUUCUCGGGUGUCAAGG
UAACUUUAGAGGAGGAUCUGAUGGAUAUGGCAGGGGACGUGGAUUUGGGGAUGGCUAUAAUGGGUAUGGAGGAGGACCUGGAGGUGGCAA: -0.112
UCCUCAAGUCCUGUGCUACACAUCGUAUGUACCGAAUCGGGAGGAGGAGGGGAAAGUAUUAUGUUACGCCGUUCGGAUCUGCACUUCCAG: 0.205
ACCAUGCAGGUGGGCAUCUUUGGGAAGUGGGGCAAGGGGGGGAUAGGGAGGGGGGUAACACUUUGGGAACAGGUGGUCCCAGUUCGUUUC: 0.345
AGUCCUGUGCUACACAUCGUAUGUACCGAAUCAAAUUUUUUUAAAUUUAAAUUUAAAAAAGUAUUAUGUUACGCCGUUCGGAUCUGCACU: -2.65
GCCUGGCGCUGGCCAACAAUAGCACCCUCACCAUUGGCACCAUCGAUGAGAUCCAGAAGCUGCACAUUCGCACAGUUCCCCUCUAUGAGU: 0.171
GUCCUGUGCUACACAUCGUAUGUACCGAAUCGGGAAAAAAGGAAAAAAGGGAAAAAAGGAAAGUAUUAUGUUACGCCGUUCGGAUCUGCA: -0.287
GUCCUGUGCUACACAUCGUAUGUACCGAAUCGGGGUUUGGGGUUUGGGGUUUUUGGGGAAAGUAUUAUGUUACGCCGUUCGGAUCUGCAC: -0.45
UGGGAGGUGGAUUUUGUUUAUUUUUUUAGCUCAUUUCCAGGGGUGGGAAUUUUUUUUUGAUAUGUGUCAUGAAUAAAGUUGUUUUUGAAA: -0.688
CACAGACAACACGCACCCACACAGACACAGAGGGAAGGGGUUGGGAUGGGGACAGGGUGCACAGCAGGGCGGGGUAGGACCCCAGCCCCG: -0.266
GCAGGAAGUAAAAACAAAUGGAAAUGCAAAGGAUAGUGGCAGGGGUGGGGGUUGCUAAGGAAAGGGUGGGAUGGGAGUGGGUAAAGAGUU: 0.288
CACAGACAACACGCACCCACACAGACACAGAGGGAAGGGGUUGGGAUGGGGACAGGGUGCACAGCAGAGCGGGGUAGGACCCCAGCCCCU: 0.228

A few entries again (set 1):
D159C: -16%
C72V: 60.7%
G23E: 21%
T73R: 19.4%
